# Measured values collected from several papers.
# Each line is one published result; not all experiments were run side by side.
# Cell line: MRC5
Structure (SMILES),effect on,method,time,IC50
CC(C)c1cccc(C(C)C)c1[N+]#[C][Pd-]([Cl])([Cl])=[C](Nc1cccc(CN[C](Nc2c(C(C)C)cccc2C(C)C)=[Au][Cl])c1)Nc1c(C(C)C)cccc1C(C)C,cell growth or viability,,,> 100 µM
C[C@]12CC[C@@H]3c4ccc(O)cc4CC[C@H]3[C@@H]1CC[C@@]2(O)c1cn(CC(=O)c2ccc(F)cc2)nn1,cell growth or viability,resazurin,72 h,> 52.5 µM
COc1ccc(/N=N/C(=S)N2CCCC2)cc1,cell growth or viability,resazurin,48 h,> 50 µM
Oc1ccccc1-c1nn(-c2ccccc2)[n+](-c2ccccc2)n1,cell growth or viability,resazurin,72 h,> 900 µM
CC(C)=CCn1c2cccc(=O)c-2nc2ccccc21,cell growth or viability,CCK-8,72 h,0.87 µM
C[C@]12CC/C(=N\O)C=C1CCC1C2CC[C@]2(C)/C(=C/c3ccccn3)CCC12 (stereo partly drawn),cell growth or viability,MTT,72 h,> 100 µM
Cc1cc(C)c([N+]#[C][Pt-]([Cl])([Cl])=[C](Nc2ccc(CN[C](NC(C)(C)C)=[Au][Cl])cc2)Nc2c(C)cc(C)cc2C)c(C)c1,cell viability,CellTiter-Glo,96 h,inactive
c1ccc(N=NC(=NNc2ccccn2)c2ccccc2)cc1,cell growth or viability,resazurin,72 h,< 30 µM
Cc1cc(C)c([N+]#[C][Pt-2]([Cl])([Cl])[C]#[N+]c2c(C)cc(C)cc2C)c(C)c1,cell growth or viability,,,> 100 µM
CC(C)(C)c1ccc2[c](c1)[Au-]1([Cl])[c]3cc(C(C)(C)C)ccc3-c3cncc-2[n+]31,cell growth or viability,MTS,,4.9 µM
CC(C)c1cccc(C(C)C)c1N=[C](NCc1ccc(N)cc1)[AuH][Cl],cell growth or viability,,,> 100 µM
COc1ccccc1C(=O)c1c(-n2c(C(=O)c3ccccc3OC)cc(Cl)c2Cl)c(Cl)c(Cl)n1C,cell growth or viability,resazurin,24 h,> 64 µg/mL
CCCCCCCCCCCCCCCCNC(=O)[O][Pt]([Cl])([Cl])[O]C(=O)CCC(=O)O.N.N,cell growth or viability,,,1.34 µM
CCN(CC)CCO/N=C1/C=C2CCC3C(CC[C@]4(C)/C(=C/c5ccccn5)CCC34)[C@@]2(C)CC1 (stereo partly drawn),cell growth or viability,MTT,72 h,86.4 µM
CC(C)(C)N=[C](NCc1cccc(N)c1)[AuH][Cl],cell growth or viability,,,> 100 µM
C[C@]12CC/C(=N\OCCN3CCOCC3)C=C1CCC1C2CC[C@]2(C)/C(=C/c3ccccn3)CCC12 (stereo partly drawn),cell growth or viability,MTT,72 h,> 100 µM
COc1ccc(C(=O)c2cc(C(=O)c3cc(Cl)ccc3O)c[n+]3c2NCCCC3)cc1,cell growth or viability,MTT,96 h,34 µM
COc1ccc(/N=N/C(=S)N2CCN(C)CC2)cc1,cell growth or viability,resazurin,48 h,> 50 µM
CC(C)=CCn1c2ccc(Br)c(=O)c-2nc2ccccc21,cell growth or viability,CCK-8,72 h,0.54 µM
Cc1cc(C)c([N+]#[C][Pd-]([Cl])([Cl])=[C](Nc2ccc(CN[C](NC(C)(C)C)=[Au][Cl])cc2)Nc2c(C)cc(C)cc2C)c(C)c1,cell growth or viability,,,> 100 µM
C/C1=C/C[C@H]2[C@@H]3[C@@H]([C@@]4(C)CO4)CC[C@@]3(C)CC[C@]2(C)C[C@H]2[C@@H](C)CC[C@@H]12,cell growth or viability,MTT,72 h,14 µM
CN1CCCC1CCO/N=C1/C=C2CCC3C(CC[C@]4(C)/C(=C/c5ccccn5)CCC34)[C@@]2(C)CC1 (stereo partly drawn),cell growth or viability,MTT,72 h,> 100 µM
F[P-](F)(F)(F)(F)F.O=C(CCC(=O)c1ccccc1)NCCN(CC(=O)Nc1ccc(C#CCN(Cc2ccccn2)Cc2ccccn2)cc1)C(=O)CCc1cn(C[c-]2cccc2)nn1.[C-]#[O+].[C-]#[O+].[C-]#[O+].[Fe+2].[Re+].c1cc[cH-]c1,cell growth or viability,resazurin,48 h,22.8 µM
CC1=C(Cn2c3ccc(Cl)c(=O)c-3nc3ccccc32)CCC(C)(C)C1,cell growth or viability,CCK-8,72 h,0.37 µM
C[C@]12CC/C(=N\OCCN3CCCC3)C=C1CCC1C2CC[C@]2(C)/C(=C/c3ccccn3)CCC12 (stereo partly drawn),cell growth or viability,MTT,72 h,> 100 µM
C=C(C)[C@H]1CC[C@@]2(C)CC[C@]3(C)C[C@H]4[C@@H](C)[C@H](O)C[C@H]4/C(C)=C\C[C@H]3[C@H]12,cell growth or viability,MTT,72 h,11 µM
C[C@]12CC[C@@H]3c4ccc(O)cc4CC[C@H]3[C@@H]1CC[C@@]2(O)c1cn(CC(=O)c2ccc(Cl)cc2)nn1,cell growth or viability,resazurin,72 h,> 50.8 µM
Oc1ccccc1C(N=Nc1ccccc1)=NNc1ccccn1,cell growth or viability,resazurin,72 h,< 30 µM
O=C1c2ccc(O)cc2OC1(O)Cc1ccc(O)c(O)c1 (stereo not drawn),cell growth or viability,MTT,72 h,> 400 µM
Cc1cc(C)c(N=[C](NCc2cccc(N)c2)[AuH][Cl])c(C)c1,cell growth or viability,,,> 100 µM
Oc1ccccc1-n1nc(-c2ccccc2)n[n+]1-c1ccccc1,cell growth or viability,resazurin,72 h,330 µM
Cc1cc(C)c([N+]#[C][Pd-]([Cl])([Cl])=[C](Nc2cccc(CN[C](NC(C)(C)C)=[Au][Cl])c2)Nc2c(C)cc(C)cc2C)c(C)c1,cell growth or viability,,,> 100 µM
Cn1ccn(N=Cc2ccccc2SSc2ccccc2C=Nn2ccn(C)c2=S)c1=S,cell growth or viability,MTT,72 h,24 µM

# For quick reference, copied from above:
Structure (SMILES),effect on,method,time,IC50
C[C@]12CC[C@@H]3c4ccc(O)cc4CC[C@H]3[C@@H]1CC[C@@]2(O)c1cn(CC(=O)c2ccc(Cl)cc2)nn1,cell growth or viability,resazurin,72 h,> 50.8 µM
Oc1ccccc1-n1nc(-c2ccccc2)n[n+]1-c1ccccc1,cell growth or viability,resazurin,72 h,330 µM
C[C@]12CC/C(=N\OCCN3CCOCC3)C=C1CCC1C2CC[C@]2(C)/C(=C/c3ccccn3)CCC12 (stereo partly drawn),cell growth or viability,MTT,72 h,> 100 µM
Cn1ccn(N=Cc2ccccc2SSc2ccccc2C=Nn2ccn(C)c2=S)c1=S,cell growth or viability,MTT,72 h,24 µM
